Measured values pooled from the literature.
Each line is one published result; not all experiments were run side by side. Several values in a cell are separate wells, animals, samples, runs or records. ± marks the error that the study gave.
Chain of UniProt Q04912 (whole entry, looked up): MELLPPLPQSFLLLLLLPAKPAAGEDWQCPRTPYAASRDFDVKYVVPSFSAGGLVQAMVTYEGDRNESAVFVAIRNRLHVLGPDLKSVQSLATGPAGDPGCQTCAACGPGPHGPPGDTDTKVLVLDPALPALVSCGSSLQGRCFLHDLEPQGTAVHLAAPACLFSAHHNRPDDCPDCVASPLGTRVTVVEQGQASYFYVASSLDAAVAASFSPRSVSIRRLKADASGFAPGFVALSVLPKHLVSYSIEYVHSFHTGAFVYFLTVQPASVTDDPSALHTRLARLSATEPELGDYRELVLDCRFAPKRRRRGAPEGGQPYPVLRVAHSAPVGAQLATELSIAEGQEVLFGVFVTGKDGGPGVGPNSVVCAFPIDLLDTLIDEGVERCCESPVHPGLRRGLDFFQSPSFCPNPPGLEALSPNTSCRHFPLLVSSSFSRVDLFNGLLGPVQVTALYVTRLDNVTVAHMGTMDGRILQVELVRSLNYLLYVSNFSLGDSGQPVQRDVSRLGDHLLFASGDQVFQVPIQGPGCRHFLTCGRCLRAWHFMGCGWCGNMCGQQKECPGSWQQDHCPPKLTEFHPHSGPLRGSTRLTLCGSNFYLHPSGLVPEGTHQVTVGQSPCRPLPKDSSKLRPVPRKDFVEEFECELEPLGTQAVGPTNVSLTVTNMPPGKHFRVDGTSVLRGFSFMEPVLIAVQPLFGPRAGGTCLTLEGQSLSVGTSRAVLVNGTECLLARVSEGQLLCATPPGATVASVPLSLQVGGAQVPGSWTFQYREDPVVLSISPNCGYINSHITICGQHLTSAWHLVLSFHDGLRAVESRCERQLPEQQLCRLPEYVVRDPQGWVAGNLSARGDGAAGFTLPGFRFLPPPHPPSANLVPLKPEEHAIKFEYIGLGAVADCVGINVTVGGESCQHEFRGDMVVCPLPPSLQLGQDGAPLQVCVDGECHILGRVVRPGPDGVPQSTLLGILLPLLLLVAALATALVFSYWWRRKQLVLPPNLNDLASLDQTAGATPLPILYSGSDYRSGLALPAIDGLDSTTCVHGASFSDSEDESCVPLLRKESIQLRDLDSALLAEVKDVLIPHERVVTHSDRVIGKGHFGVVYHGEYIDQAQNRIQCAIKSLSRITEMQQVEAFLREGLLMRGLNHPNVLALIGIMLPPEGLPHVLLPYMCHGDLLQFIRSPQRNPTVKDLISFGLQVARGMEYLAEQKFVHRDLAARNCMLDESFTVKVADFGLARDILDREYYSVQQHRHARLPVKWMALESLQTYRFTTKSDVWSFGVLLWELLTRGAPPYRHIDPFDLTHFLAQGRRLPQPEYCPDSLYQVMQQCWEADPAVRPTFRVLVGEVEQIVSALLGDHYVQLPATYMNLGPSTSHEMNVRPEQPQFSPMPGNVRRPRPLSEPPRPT

SMILES | target or system | assay | test system | setting | how to read | endpoint | value
Nc1ncc(-c2cc(-c3cnn(CC(F)(F)F)c3)ncc2F)nc1C(=O)NC1CNCC(F)C1 (stereo not shown) | CDK8 | KINOMEscan | – | 1 µM | relative to: DMSO control | remaining binding | 90%
c1ccc(-c2n[nH]cc2-c2ccnc3ccccc23)nc1 | CMK2 (Candida albicans) | kinase binding, MIB/MS competition | Candida albicans lysate | 10 µM | relative to: DMSO | log2 fold change | -0.11
CCCC[C@H](NC(=O)COCCOCCNC(=O)CN1CCN(CC(=O)O)CCN(CC(=O)O)CC1)C(=O)N[C@H]1CC(=O)NCCCC[C@@H](C(N)=O)NC(=O)[C@H](Cc2c[nH]c3ccccc23)NC(=O)[C@H](CCCNC(=N)N)NC(=O)[C@@H](Cc2ccccc2)NC(=O)[C@H](Cc2c[nH]cn2)NC1=O [technetium-99m labelled] | – | – | C57 mouse, brain | intravenous, 0.037 MBq, 0.5 h | – | tissue uptake | 0.16 ± 0.05 %ID/g
Cc1nn(-c2cccc(N)c2)c(=O)c2cnc(Nc3ccc(N4CCNCC4)cc3)nc12 | MST1R (Homo sapiens, UniProt Q04912) | enzyme activity, inhibitor | – | – | – | IC50 | 3.65 µM
C=C1CC[C@H](OCCCNC(=O)CCOCCOCCOCCOCCOCCOCCOCCOCCOCCOCCOCCOCCOCCOCCOCCOCCOCCOCCOCCOCCOCCOCCOCCOCCOCCOCCOCCOCCOCCOCCOCCOCCOCCOCCOCCOCCNC(=O)CCN2C(=O)CC(SC[C@H](NC(=O)[C@H](Cc3ccccc3)NC(=O)[C@H](CC(N)=O)NC(=O)[C@H](Cc3c[nH]cn3)NC(=O)[C@@H](NC(=O)[C@H](CC(=O)O)NC(=O)[C@H](CCC(N)=O)NC(=O)[C@H](CC(C)C)NC(=O)[C@H](CCCCN)NC(=O)[C@H](CCCCN)NC(=O)[C@H](CCCNC(=N)N)NC(=O)[C@H](CC(C)C)NC(=O)[C@H](Cc3c[nH]c4ccccc34)NC(=O)[C@H](CCC(=O)O)NC(=O)[C@@H](NC(=O)[C@H](CCCNC(=N)N)NC(=O)[C@H](CCC(=O)O)NC(=O)[C@H](CCSC)NC(=O)[C@H](CO)NC(=O)[C@H](CC(N)=O)NC(=O)[C@H](CC(C)C)NC(=O)[C@H](Cc3c[nH]cn3)NC(=O)[C@H](CCCCN)NC(=O)CNC(=O)[C@H](CC(C)C)NC(=O)[C@H](CC(N)=O)NC(=O)[C@H](Cc3c[nH]cn3)NC(=O)[C@H](CCSC)NC(=O)[C@H](CC(C)C)NC(=O)[C@H](CCC(N)=O)NC(=O)[C@@H](NC(=O)[C@H](CCC(=O)O)NC(=O)[C@H](CO)NC(=O)[C@@H](NC(=O)[C@@H](N)CO)C(C)C)[C@@H](C)CC)C(C)C)C(C)C)C(=O)O)C2=O)C/C1=C/C=C1\CCC[C@]2(C)[C@@H]([C@H](C)CCCC(C)(C)O)CC[C@@H]12 (stereo partly shown) | – | – | male Sprague-Dawley rat, plasma | intravenous, 100 µg/kg, single dose | – | Tmax | 8.4 min
CC(C)C[C@@H](NC(=O)[C@@H](CC(C)C)NC(=O)[C@@H](CC(=O)O)NC(=O)[C@@H](CC(C)C)NC(=O)[C@@H](CC(C)C)NC(=O)[C@@H](CC(C)C)NC(=O)[C@H](NC(=O)[C@@H](CC(=O)O)NC(=O)[C@H](NC(=O)[C@H]1CCCN1C(=O)[C@@H](Cc1ccccc1)NC(=O)[C@@H](CC(C)C)NC(=O)[C@@H](CC(C)C)NC(=O)[C@@H](CC(=O)O)NC(=O)[C@@H](CC(C)C)NC(=O)[C@@H](Cc1ccc(O)cc1)NC(=O)[C@@H](C)NC(=O)[C@@H](CCCNC(=N)N)NC(=O)[C@@H](Cc1c[nH]c2ccccc12)NC(=O)[C@H]1CCCN1C(=O)[C@@H](CC(N)=O)NC(=O)[C@@H](CCC(N)=O)NC(=O)[C@@H](CC(=O)O)NC(=O)[C@@H](CC(=O)O)NC(=O)[C@@H](CSC1CC(=O)N(CCNC(=O)CN2CCN(CC(=O)O)CCN(CC(=O)O)CC2)C1=O)NC(=O)[C@@H](C)N)[C@H](C)O)[C@H](C)O)C(=O)N[C@H](Cc1c[nH]c2ccccc12)C(=O)O (stereo partly shown) [fluorine-18 labelled] | – | – | female C57BL/6 mice, B16-F10 melanoma, tumor | intravenous, 4 h | – | tissue uptake | 8.23 %ID/g
CC(C)c1ccc(N(C)c2ccc3c(c2)OCC[C@H]3CNc2cnccc2C(=O)O)cc1 | MPP-89 | cell growth, CellTiter-Glo | – | 7 days | – | IC50 | ≥ 10 µM
CNS(=O)(=O)Nc1nccc(Cc2c(C)c3ccc(Oc4ncccc4F)cc3oc2=O)c1F | MKN-1 | cell viability | – | 7 days | – | IC50 | > 1 µM
CN1CCCNC(=O)c2cccc(c2)C(=O)NCCCN(C)CCCNc2cccc3c2C(=O)c2cccc(c2C3=O)NCCC1 | SAS | RNA-Seq, measured: MTIF2 mRNA | – | 1 µM, 6 h | relative to: untreated cells | log2 fold change | 0.818
CCN(CC)CC(=O)Nc1cccc(-n2cc(-c3ccc4ccc(-c5cn(-c6cccc(NC(=O)CN(CC)CC)c6)nn5)cc4c3)nn2)c1 | RCC4 | PCR angiogenesis array, measured: VEGFA | – | 5 x IC50, 6 h, normoxia | relative to: untreated | fold regulation | -1.51 fold
CCc1cc(OCCOCCN(C)C)ccc1Cl | – | – | zebrafish larvae, 7 dpf | 10 µM, minute 4 | – | larval motion | 10 ± 1.9 pixels/frame
C=CC(=O)Nc1cccc(Cn2ncc3cnc(Nc4cnn(CCOC)c4)nc32)c1 | CSNK1G1 human | binding, KINOMEscan | – | 100 nM | lower = stronger binding | percent of control | 100%
CCCC[C@H](NC(=O)CCCCCCCNC(=O)CN1CCN(CC(=O)O)CCN(CC(=O)O)CC1)C(=O)N[C@H]1CC(=O)NCCCC[C@@H](C(N)=O)NC(=O)[C@H](Cc2c[nH]c3ccccc23)NC(=O)[C@H](CCCNC(=N)N)NC(=O)[C@@H](Cc2ccccc2)NC(=O)[C@H](Cc2c[nH]cn2)NC1=O [technetium-99m labelled] | – | – | C57 mouse, lung | intravenous, 0.037 MBq, 2 h | – | tissue uptake | 1.49 ± 0.88 %ID/g
CN(C)C(=O)c1ccnc(N2Cc3cn(Cc4ccc(F)cc4F)nc3C2)n1 | – | – | mouse, hippocampal slice, Schaffer collaterals | dose not given, interstimulus interval 400 | relative to: second over first response | paired-pulse ratio | 1.31 and 1.16 and 1.12 and 1.21 and 1.11 and 1.17 and 1.15 and 1.18
CCN(C(=O)c1cc(F)ccc1Oc1nncnc1N1CCC2(C1)CN([C@H](CCCN(C)CCOC)C(C)C)C2)C(C)C | RD-ES | cell growth or viability | – | 7 days | – | GI50 | > 10 µM
C=CC(=O)N1[C@@H](c2ccc3c(c2)OCO3)c2[nH]c3ccccc3c2C[C@H]1C(=O)N1CCN(C)CC1 | human cyclin E1 wild type-3xFLAG:CDK2 | co-IP with TMT proteomics, measured: KPNA2 | – | concentration not given, P52292 | relative to: wild type DMSO | relative co-enrichment | 85%
O=C(CCN1CCN(C/C=C/c2ccccc2)CC1)Nc1ccc2c(c1)CCC2 | – | locomotor activity in dark | zebrafish larvae, 7 dpf | 10 µM, minute 7, dark phase | – | larval motion | 5.7 ± 0.9 pixels/frame
COC1CN([C@H]2CC[C@H]([C@@]3(C)Oc4c(Cl)cc(C(=O)NCc5c(SC)cc(C)[nH]c5=O)c(C)c4O3)CC2)C1 | – | RNA-seq, measured: VLDLR mouse homolog | mouse, HT-1376 xenograft, whole blood | dose not given | relative to: vehicle | log2 fold change | 1.22
Cc1ncsc1-c1ccc(C(C)NC(=O)C2CC(O)CN2C(=O)C(NC(=O)CCCCCCCCCCN2CCCC(Nc3ncc(Cl)c(Nc4ccccc4S(=O)(=O)C(C)C)n3)C2)C(C)(C)C)cc1 (stereo not shown) | 22Rv1 | RNA-seq, measured: PSRC1 mRNA | – | concentration not given | relative to: DMSO | log2 fold change | -1.37
O=C1NC2(CC2)COc2ncc(F)cc2[C@H]2COCCN2c2ccn3ncc1c3n2 | Salmonella typhimurium | Ames test | TA102 | 150 µg/plate, 48 h, with: without S9 | – | revertant colonies | 366 ± 15 revertants/plate
Cn1ncc2cc(-c3cncc(Cl)c3N3CCC4(CCNC4=O)CC3)ccc21 | LS174T | gene expression, microarray, measured: PCK1 mRNA | – | concentration not given, 24 h | relative to: untreated cells | log2 fold change | 8.08
C=C(NC(=O)c1csc(-c2nc3c(cc2O)-c2nc(cs2)C(=O)NC(C(C)O)C(=O)NC(=C(C)OC)c2nc(cs2)C(=O)NC2c4nc(cs4)C(=O)NC(COC(=O)c4c5c6c(cccc6n4O)COC(=O)C(OC4CC(C)(O)C(N(C)C)C(C)O4)C2OC5)c2nc-3cs2)n1)C(N)=O (stereo not shown) | – | – | male Sprague-Dawley rat, plasma | intravenous, 2 mg/kg, single dose, infusion | – | Tmax | 4.8 min
